Measurements of several laboratories.
Parts stem from different laboratories: compare values within a part only. Changes are numbered by the printed parent chain.

Block 1
Target: ABI1, truncated, D143A, DHFR fusion (Arabidopsis thaliana)
Method: DHFR PCA, deep sequencing
Sample: yeast
Setting: methotrexate growth selection, single substitutions
With: (+)-ABA 0.39 µM
Baseline: wild-type fitted maximum
Direction: higher = stronger binding
Endpoint: relative binding score
Starting sequence: PYL1, truncated, DHFR fusion (Arabidopsis thaliana); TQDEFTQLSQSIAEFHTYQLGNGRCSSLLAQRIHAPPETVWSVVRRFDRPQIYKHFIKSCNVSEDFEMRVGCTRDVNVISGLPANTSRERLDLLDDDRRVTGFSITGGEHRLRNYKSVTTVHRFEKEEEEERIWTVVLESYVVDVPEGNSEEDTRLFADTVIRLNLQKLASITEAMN; partner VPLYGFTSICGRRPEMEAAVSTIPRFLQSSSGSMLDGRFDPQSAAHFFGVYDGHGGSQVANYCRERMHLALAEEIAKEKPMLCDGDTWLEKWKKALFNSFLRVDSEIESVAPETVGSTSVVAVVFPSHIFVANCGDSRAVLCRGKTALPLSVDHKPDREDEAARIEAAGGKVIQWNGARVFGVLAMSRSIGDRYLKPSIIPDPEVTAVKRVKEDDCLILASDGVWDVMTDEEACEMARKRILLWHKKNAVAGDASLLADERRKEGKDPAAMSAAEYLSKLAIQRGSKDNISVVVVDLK
F15R: -7.75%
F157M: 19.1%
F124Y: 35.8%
E139K: 12.9%
S11W: 32.5%
V100Q: -8.2%
H110C: 17.7%
T154I: 3.17%
D3T: 36.3%
T135C: 22.3%
Q2D: 48%
L156R: 10.9%
T73D: 0.171%
H16V: -1.73%

Block 2
Target: CCNE1, cyclin fold, Cln2 fusion (human)
Method: yeast growth competition, sequencing
Sample: yeast
Setting: strong parent motif
Baseline: not given
Direction: higher = stronger binding
Endpoint: normalised enrichment score
Starting sequence: CDC25A docking peptide (human); PPHRRRLLFACSP
H3K: 0.656
R6H: 0.671
R4P: 0.916
P13V: 0.706
P13A: 1.32
H3R: 1.07
A10N: 2.34
L7W: 1.11
R4S: 0.3
R5Y: 1.39
P1M: 1.1
R5E: 0.17

Block 3
Target: RING finger protein unkempt homolog, zinc fingers 1-6, GST-SBP tag (UNK, Homo sapiens, UniProt Q9C0B0, residues 30-357)
UniProt Q9C0B0, sequence (30-357, looked up): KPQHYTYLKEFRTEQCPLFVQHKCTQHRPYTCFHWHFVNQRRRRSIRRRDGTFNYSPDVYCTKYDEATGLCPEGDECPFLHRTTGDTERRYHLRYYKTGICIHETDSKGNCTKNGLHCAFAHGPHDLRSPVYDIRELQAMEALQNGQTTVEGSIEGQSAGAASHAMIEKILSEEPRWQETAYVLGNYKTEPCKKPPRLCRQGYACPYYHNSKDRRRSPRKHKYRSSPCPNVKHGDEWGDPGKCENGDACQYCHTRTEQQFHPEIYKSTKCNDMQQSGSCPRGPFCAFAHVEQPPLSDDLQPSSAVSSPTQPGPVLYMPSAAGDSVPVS
Method: RNA Bind-n-Seq
Molecule type: RNA
Sample: in vitro
Tested at: not given
Setting: RNA with constant flanks, ends assumed
Baseline: input RNA pool
Direction: higher = stronger binding
Endpoint: bound/input enrichment
Shared flanks, not repeated: GGGAGUUCUACAGUCCGACGAUC … CAACAGAGGAUUGAGCAUCA
GGGCGCUCUGCAUCCAGGUGCCAUUCAUCAGAAAAUAAAAAUGUCUCCUUGAACCUAUCCCUCCGGGCCUGCUUCCUGGAAUCCAAGGGACUAGGAACUCUCUGAGUCACAGGACUCCCA: 0.41 ratio
AUGAAGGAGGCGUUUGGCUUUAUCGAAAGAGGUGAUGUUGUAAAAGAGAUAUUCUUUCACUACCGUGAAUUUAAAGGUGACCUAGAAACCCUACAGCCUGGAGAUGACGUGGAAUUCACA: 0.246 ratio
AUCCUUUCUGGCACAUCUGACCUACUGCUUACCUUCGAUGAGGCUGAGGUUCGUAAAAUUAUCCGGGUUUGCAAAGGAAUUUUGGAAUAUCUUACAGUGGCAGAGGUAGUGGAAACUAUG: 0.223 ratio
AUUGAAAUAAAAGUAUUAUCAGAACUUGGUAGAGAAGCUCAGAAUCUUUCAGCUAUGGAAAUCCGAAAGAAAGCUAGAUCAUUUGCUAAAGCAGCCAUUGAGAAACAGAAAUCAGCAUUU: 0.192 ratio
UGCGUCCUUUUUCGUUUUUCGGAUGAUGCCUUCAAUACUACCUUUAUUUCCACCACCGGAACCGACUUCAAGAUCAAAACAGUUGAAUUACAAGGAAAGAAGAUCAAGCUACAGAUAUGG: 0.174 ratio
UCACCUGUUCAAGAUAUUGAUACCCCAGAGGUUGAUUUAUACCAAUUACAAGUAAAUACACUCCGGAGAUACAAAAGACACUUCAAGCUACCAACCAGACCAGGACUUAAUAAAGCACAA: 0.356 ratio
UUAAGACCCUCGCUCCUGCUGCUAACACAGACCGUUAACCAGAGGAGGCUUCCAUCGCCGCCAUAAUGCCUGUCGUCGUACAGCUCAGUAGCCCGUUCUCUUUCACAGUUCAACGUGUAC: 0.142 ratio
GGCUUUGAGCUUCCUCAGGGGCCUCUGGGAACAUCCUUCAAAGGAAAAUAUGGGUGUGCCGACUACUGGGUGAAGGCUUUUCUUGACCGCCCGAGCCAGCCAACUCAAGAGACAAAGAAA: 0.272 ratio
AGAGACAUGUUGCGGCGGAUUAAGGAAGAUGAAGAUGACAAGACAGUCAUGGAUCUUGCUGCCGUUUUGUUUGAAACGGCAACACUUCGGUCAGGAUAUCUUCUACCAGACACCAAGGCG: 0.149 ratio
AGUCCUCAACGUGUUCUAGCUUGUGAUCCUUCAAAGAUGGGUUAUGUGUUAAUGACCGGUACCCGAAAUGUUUACUUCUCUCUUUCCACUGAUCAGAGAAACAGGCAUUAAAGACAGAAU: 0.249 ratio
AAAUGUUGUUUACCUUCUCAGAGUAGUGCUUUGGGGGUUCCUGGCGGCGUGUUGGAGGUCCCGCACAUACAGCUUCCCUUAACAGAAUAUUUUACGACAGUUUCAUACAGGGUUGCCUUA: 0.3 ratio

Block 4
Target: UBE2G2 UBC core domain (UniProt P60604)
Method: yeast two-hybrid
Sample: yeast
Setting: mostly zero background
Baseline: not given
Direction: higher = stronger interaction
Endpoint: lacZ reporter activity
B1: TRIM54 RING domain (UniProt Q9BYV2); chain SMDNLEKQLICPICLEMFSKPVVILPCQHNLCRKCANDVFQASNPLWQSRGSTTVSSGGRFRCPSCRHEVVLDRHGV
Construct (chain): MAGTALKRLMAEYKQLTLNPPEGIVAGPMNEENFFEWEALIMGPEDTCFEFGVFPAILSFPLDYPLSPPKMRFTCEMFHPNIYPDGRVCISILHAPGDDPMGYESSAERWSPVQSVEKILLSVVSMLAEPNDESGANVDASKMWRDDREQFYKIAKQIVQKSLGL
RYRQMEERITCPICIDSHIRLVFQCGHGACAPCGSALSACPICRQPIRDRIQIF (MIB2 RING domain (UniProt Q96AX9)): 0
B1 (TRIM54 RING domain): 0
YPEEVDDDLICHICLQALLDPLDTPCGHTYCTLCLTNFLVEKDFCPMDRKPLVLQHCKK (LNX1 RING domain (UniProt Q8TBB1)): 0
LDAASGHPLVCPLCHGQYERPCLLDCFHDFCTGCLRGRATDGRLSCPLCQHQTLVKGPSG (Rnf207 RING domain (UniProt Q3V3A7)): 0
MNDVLENELQCIICSEYFIEAVTLNCAHSFCSYCINEWMKRKIECPICRKDIKSKTYSL (RNF8 RING domain (UniProt O76064)): 0

Repeated from above (block 1):
S11W: 32.5%
V100Q: -8.2%
F15R: -7.75%
H16V: -1.73%
